Measured values collected from several papers.
Protocols differ between the studies behind these lines. Several values in a cell are separate wells, animals, samples, runs or records. Numbers after ± are the reported error. In brackets after ≈: the same amount, converted by molar mass.

For `CC(=O)N1CCC(C(=O)N2CCN3C(=O)c4cc(-c5ccccc5)ccc4NC(=O)C3C2)CC1` (stereo not shown), “revertant fold increase” read 1.2 (Escherichia coli; WP2 uvrA; 500 µg/plate, with rat liver S9; relative to: vehicle).
`CC(C)N(C)N=O`: “revertant colonies per plate” 136 ± 15 (Escherichia coli; mutagenicity, Ames plate incorporation; WP2 uvrA pKM101; 50 µg/plate, 3 d, without S9, methanol).
The LC50 of `O=C1OC[C@H]2OC(O)[C@H](O)[C@@H](O)[C@@H]2OC(=O)c2cc(O)c(O)c(O)c2-c2c(O)c(O)c3oc(=O)c4c(c(O)c(O)c5oc(=O)c2c3c54)-c2c1cc(O)c(O)c2O` (mixture of isomers) is reported as 941 µg/mL (Artemia salina; seawater; 24 h, nauplii).
`CC(C)C[C@H](NC(=O)[C@H](Cc1c[nH]cn1)NC(=O)[C@H](Cc1c[nH]cn1)NC(=O)[C@H](Cc1ccc(O)cc1)NC(=O)[C@@H](N)CS)C(=O)N[C@H](C(=O)N[C@@H](CC(C)C)C(=O)N[C@H](C(=O)N[C@H](C(=O)NCC(=O)NCC(=O)N[C@@H](CO)C(=O)O)C(C)C)[C@@H](C)O)C(C)C` gave a body weight of 19.9 g and 19.5 g and 18.9 g (Epstein-Barr virus; B-NDG humanized mouse, EBV-infected; 20 mg/kg, day 0).
`O=[N+]([O-])c1ccc(N2CCC(NCCC(O)c3ccc(F)c4ccccc34)CC2)c(C(F)(F)F)c1` (stereo not shown) gave a survival of 85.1% (Salmonella typhimurium; SOS/umu test; TA1535/pSK1002; 0.063 mg/mL, 4 h, with S9, full range).
`CN(CC(C)(C)C)N=O`: “revertant colonies per plate” 132 and 134 (Escherichia coli; plate incorporation; WP2uvrA pKM101, methanol; 1500 µg/plate, without S9).
With `CC1(F)CN(C(=O)Cn2c(=O)c(C(=O)NCc3ccc(Cl)cc3)cc3nc(N4CCNC4=O)cnc32)C1` the selectivity index was 65.9 (Epstein-Barr virus; qPCR; single first test; relative to: CC50 over EC50).
For `O=c1c(O)c(-c2ccc(O)cc2)oc2cc(O[C@@H]3O[C@H](CO)[C@@H](O)[C@H](O)[C@H]3O)cc(O)c12`, the LC50 was 999 µg/mL (≈ 2230 µM) (Artemia salina; 24 h, nauplii).
The developmental defects of `Cc1c(Cl)c(=O)oc2cc(OCCCC[Se]C#N)ccc12` is reported as 0% (Caenorhabditis elegans; N2 Bristol, NGM with E. coli OP50; 1 µM, 3 days).
`[Cl-].[Cl-].[Pt+2].[Ru+2].c1ccc(-c2nccnc2-c2ccccn2)nc1.c1cnc2c(c1)ccc1cccnc12.c1cnc2c(c1)ccc1cccnc12` has a survival rate of 50 ± 2.4% (Danio rerio; embryos; 75 µM, 48 h).
For `CN(N=O)c1ccc(F)cc1`, “revertant colonies per plate” read 128 ± 10 (Escherichia coli; mutagenicity, Ames plate incorporation; WP2 uvrA pKM101; 50 µg/plate, 3 d, without S9, methanol).
`COC1=CC(=O)c2ccccc2C1=O` has a mortality of 63% (Artemia salina; nauplii, synthetic seawater; 50 µg/mL, 24 h, 5% DMSO).
`[Cl-].[Cl-].[Pt+2].[Ru+2].c1ccc(-c2nc3cc4ccccc4cc3nc2-c2ccccn2)nc1.c1cnc2c(c1)ccc1cccnc12.c1cnc2c(c1)ccc1cccnc12` has a survival rate of 76.7 ± 3.5% (Danio rerio; embryos; 45 µM, 96 h).
Under “revertant colonies per plate”, `O=NN1CCN(C2CCCC2)CC1` is recorded as 129 ± 13 (Escherichia coli; mutagenicity, Ames plate incorporation; WP2 uvrA pKM101; 150 µg/plate, 3 d, without S9, methanol).
With `Fc1ccc(C2=CCNCC2)cc1` the induction factor was 0.9 (Salmonella typhimurium; genotoxicity, SOS/umu test; TA1535/pSK1002; 0.5 mg/mL, 4 h, without S9, full range).
For `COCCN(CCOC)N=O`, “revertant colonies per plate” read 120 ± 18 (Escherichia coli; mutagenicity, Ames plate incorporation; WP2 uvrA pKM101; 150 µg/plate, 3 d, without S9, methanol).
The revertant ratio of `Cc1cc(C(=O)NC(C)(C)COc2cccc3c2C(N)=NS(=O)(=O)N3)cc(C)n1` is reported as 1.1 (Escherichia coli; Ames test, confirmatory; WP2 uvrA; 333 µg/plate; relative to: solvent control).
For `COc1ccnc(C(=O)N[C@H]2COC(=O)[C@H](Cc3ccccc3)[C@@H](OC(=O)C(C)C)[C@H](C)OC2=O)c1OCOC(=O)C(C)C`, the LD50 was > 2000 mg/kg (Colinus virginianus; acute).
The LC50 of `O=C(O[C@@H]1O[C@@H]2COC(=O)c3cc(O)c(O)c(O)c3-c3c(cc(O)c(O)c3O)C(=O)O[C@H]([C@H]1O)[C@@H]2O)c1cc(O)c(O)c(O)c1` is reported as 589 µg/mL (≈ 928 µM) (Artemia salina; seawater; 24 h, nauplii).
For `COc1cnc(OC)n2nc(NS(=O)(=O)c3c(OCC(F)F)cccc3C(F)(F)F)nc12`, root length read “inhibited” (Triticum aestivum; inhibited, hydroponic germination; seedlings; 50 µg/mL, 4 days).
For `COc1cccc(-c2n[nH]c(SCc3ccccn3)n2)c1OC`, “revertant colonies per plate” read 8 (Salmonella typhimurium; Ames test, preincubation; TA1537; 0.25 mg/plate, with rat liver S9).
The internal concentration of `O=C(O)C(F)(OC(F)(F)C(F)(F)C(F)(F)F)C(F)(F)F` (stereo not shown) is reported as 24.7 µM (Caenorhabditis elegans; LC-MS/MS; N2 L4 larvae, worm pellet; 500 µM, 48 h).
`[Cl-].[Cl-].[Pt+2].[Ru+2].c1ccc(-c2nc3ccccc3nc2-c2ccccn2)nc1.c1cnc2c(c1)ccc1cccnc12.c1cnc2c(c1)ccc1cccnc12` has a survival rate of 50 ± 2% (Danio rerio; embryos; 90 µM, 72 h).
`O=C(O)C(F)(F)C(F)(F)C(F)(F)C(F)(F)C(F)(F)C(F)(F)C(F)(F)F` gave a concentration of 302 µM (Caenorhabditis elegans; LC-MS/MS; N2 L4 larvae, exposure medium supernatant; 500 µM, 48 h).
`OC(CCN1CC=C(c2ccc(F)cc2)CC1)c1ccc(F)c2ccccc12` (stereo not shown) — result for “umu induction factor”: 0.9 (Salmonella typhimurium; SOS response, SOS/umu test; TA1535/pSK1002; 0.001 mg/mL, 4 h, without S9 activation).

A few entries again:
The revertant ratio of `Cc1cc(C(=O)NC(C)(C)COc2cccc3c2C(N)=NS(=O)(=O)N3)cc(C)n1` is reported as 1.1 (Escherichia coli; Ames test, confirmatory; WP2 uvrA; 333 µg/plate; relative to: solvent control).
For `COc1ccnc(C(=O)N[C@H]2COC(=O)[C@H](Cc3ccccc3)[C@@H](OC(=O)C(C)C)[C@H](C)OC2=O)c1OCOC(=O)C(C)C`, the LD50 was > 2000 mg/kg (Colinus virginianus; acute).
The LC50 of `O=C(O[C@@H]1O[C@@H]2COC(=O)c3cc(O)c(O)c(O)c3-c3c(cc(O)c(O)c3O)C(=O)O[C@H]([C@H]1O)[C@@H]2O)c1cc(O)c(O)c(O)c1` is reported as 589 µg/mL (≈ 928 µM) (Artemia salina; seawater; 24 h, nauplii).
